Measurements collected from several papers.
Compare with care: the assays were run in different laboratories. Numbers after ± are the reported error.

Substance | cell line | effect on | method | time | setting | IC50 [µM]
O=C(/C=C/c1ccc(Cn2cc(Cn3cnc4cc(F)ccc4c3=O)nn2)cc1)NO | MRC5 | cell growth or viability | MTT | 48 h | – | 15
C=CC(C)(CO)c1cc2cc(-c3ccc(O)cc3O)c(=O)oc2cc1O (stereo not drawn) | HT-29 | cell growth or viability | – | – | – | > 10
O=C1NCCc2c(OCCCCN3CCCCC3)cccc21 | HeLa | cell viability | CCK-8 | 11 h | – | > 150
O=C(NO)c1ccc(Cn2cc(Cn3cnc4ccc(F)cc4c3=O)nn2)cc1 | MRC5 | cell growth or viability | MTT | 48 h | – | 36.3
CC1(C)c2cc(CC(=O)c3ccc(O)cc3O)c(O)cc2OC1CO (stereo not drawn) | HT-29 | cell growth or viability | – | – | – | > 10
O=C(/C=C/c1ccc(Cn2cc(Cn3cnc4ccccc4c3=O)nn2)cc1)NO | MRC5 | cell growth or viability | MTT | 48 h | – | 36.7
COc1ccc(/C=C/C(=O)C(=CC2=CC=C[CH]2[Fe][CH]2C=CC=C2)C(=O)/C=C/c2ccc(OC)c(OC)c2)cc1OC (stereo not drawn) | NCM460 | cytotoxicity | MTT | – | – | 929
C=CC(C)(C)c1cc2c(cc1O)OC[C@H](c1cc(-c3oc4cc(O)ccc4c3C(=O)c3cc(C(C)(C)C=C)c(O)cc3O)c(O)cc1O)C2 | HT-29 | cell growth or viability | – | – | – | 4.2
C=C(C)C(=O)O[C@H]1C[C@@]2(C)OC(=CC2=O)C(=C)[C@H](O)[C@H]2OC(=O)C(=C)[C@@H]21 | HT-29 | cytotoxicity | – | – | – | 0.28
CCCCC(CC)COC(=O)CC(C(=O)OCC(CC)CCCC)S(=O)(=O)O.CN(C)C(=N)N=C(N)N (stereo not drawn) | MYCN-2 | cytotoxicity | SRB | – | – | 150
dolastatin 16 | HeLa | cell viability | MTT | 48 h | – | 58
C=CC(C)(O)Cc1cc2cc(-c3ccc(O)cc3O)c(=O)oc2cc1O (stereo not drawn) | HT-29 | cell growth or viability | – | – | – | > 10
Nc1cc(N2C(=O)c3ccccc3C2=O)nc(SCC(=O)NN=Cc2ccc(Cl)cc2)n1 | WI-38 normal lung fibroblasts | cell growth | – | – | 10% fetal bovine serum | 87.4 ± 4.4
Cc1ccc2ncn(Cc3cn(Cc4ccc(/C=C/C(=O)NO)cc4)nn3)c(=O)c2c1 | MRC5 | cell growth or viability | MTT | 48 h | – | 26.7
C=C1C(=O)O[C@@H]2/C=C(/C)C3=CC(=O)[C@@](C)(C[C@H](OC(=O)/C(C)=C\C)[C@@H]12)O3 | HT-29 | cytotoxicity | – | – | – | 1.4
CC1=C(CO)C(=O)O[C@@H]([C@@H](C)[C@H]2CC[C@H]3[C@@H]4C[C@H]5O[C@]56[C@@H](O)C=CC(=O)[C@]6(CO)[C@H]4CC[C@]23C)C1 | JMAR HNSCC | cell viability | MTS | – | – | 5.1 ± 0.23
Cc1ccc2ncn(Cc3cn(Cc4ccc(C(=O)NO)cc4)nn3)c(=O)c2c1 | MRC5 | cell growth or viability | MTT | 48 h | – | 166
C=C1C(=O)O[C@@H]2/C=C(/C)C3=CC(=O)[C@@](C)(C[C@H](OC(=O)C(C)C)[C@@H]12)O3 | HT-29 | cytotoxicity | – | – | – | 0.58

A few entries again:
Substance | cell line | effect on | method | time | setting | IC50 [µM]
O=C(/C=C/c1ccc(Cn2cc(Cn3cnc4ccccc4c3=O)nn2)cc1)NO | MRC5 | cell growth or viability | MTT | 48 h | – | 36.7
